Assay results pooled from the literature.
Protocols differ between the studies behind these lines. ± marks the error that the study gave.
Cell line: MCF7

N=C(N)NCCC[C@H](NC(=O)[C@H](Cc1c[nH]c2ccccc12)NC(=O)[C@H](CCC(N)=O)NC(=O)[C@H](Cc1c[nH]c2ccccc12)NC(=O)[C@@H](N)CCCNC(=N)N)C(=O)N[C@@H](Cc1c[nH]c2ccccc12)C(=O)N[C@@H](CCC(N)=O)C(=O)N[C@@H](Cc1c[nH]c2ccccc12)C(N)=O  selectivity ratio (reference: erythrocyte IC50 over MCF7 IC50): > 2.6
Cc1ccc(NC(=O)C2C(=O)C(c3ccccc3)c3ccc4c(c32)C(=O)c2ccccc2C4=O)cc1 (centres unmarked)  TGI (cell growth or viability): 67.4 µM
NS(=O)(=O)c1ccc(/N=N/c2ccc(O)c(/C=N/c3nccs3)c2)cc1  selectivity index (MTT; 48 h; reference: MCF10A IC50 over MCF7 IC50): 3.76
CC(Cc1ccc(Cl)cc1)=C(c1ccc(Cl)cc1)c1ccc(OCCN2CCCCCC2)cc1  inhibition (cell growth or viability; 10 µM): 31.8%
CN(C)c1ccc(/C=C/c2cc(/C=C3\Sc4ccccc4N3CCCN3CCCC3)c3ccccc3[n+]2C)cc1  caspase-3 and Bax levels (Western blot; concentration not given, 36 h): increased
COc1cccc2c1C(=O)c1c(O)c3c(c(O)c1C2=O)CC(O)(C(=O)CO)CC3OC1CC(NC(=O)CCC2=C(C)C(=O)C=C(C(C)C)C2=O)C(O)C(C)O1 (centres unmarked)  ROS production (10 µM, 4 h; reference: free doxorubicin): decreased
CN1CCN(c2ccc(C(=O)/C=C/Nc3ccc(S(N)(=O)=O)cc3)cc2)CC1  early apoptotic cells (annexin V/PI; concentration not given): 13.9%
N.N.O=C(CCCc1ccccc1)[O][Pt]([Cl])([Cl])[O]C(=O)CCCc1ccccc1  DNA-bound platinum (GF-AAS; 5 µM, 24 h; reference: cellular platinum): 16%
CC(=NNC(=S)NN=C(C(=NO)c1ccccc1)c1ccccc1)c1ccccc1  relative protein level (Western blot, item: Bcl-2; IC50 concentration, 24 h; reference: untreated): 0.72 ± 0.07
COc1ccc(/C=C/C(=O)c2ccc(NC(=O)c3ccccc3CN3C(=O)c4ccccc4C3=O)cc2)c(OC)c1  early apoptotic cells (annexin V/PI staining; IC50, 24 h; reference: untreated): 14.9 fold
O=C(O)C=Cc1ccc(C(=C2CCCCC2)c2ccc(O)cc2)cc1  PR mRNA level (antagonist, real-time PCR; 1 µM, together with: 1 nM estradiol): no effect
COc1cc2c(=O)c(-c3ccc4c(c3)OCO4)coc2c2c1OC(C)(C)C=C2  apoptotic cells (annexin V/PI flow cytometry; 5 µM, 48 h): 31.3%
O=C(c1ccc2ccccc2c1)c1cn(-c2ccccc2)nc1C1=Nn2c(Cc3nnc4n3N=C(c3nn(-c5ccccc5)cc3C(=O)c3ccc5ccccc5c3)CS4)nnc2SC1  mRNA level (RT-PCR, item: caspase-9; IC50, 48 h; reference: untreated): 10.6 fold
COc1ccc(NC(=O)CCc2nc3cc(Cl)ccc3[nH]c2=O)cc1  VEGFR-2 level (ELISA; culture medium; IC50, 24 h): 170 pg/mL
CN(C)c1cccc2c(S(=O)(=O)NCCCCCC(=O)NO)cccc12  cells in S phase (cell cycle, propidium iodide flow cytometry; 1 µM): 12.9%
CCC(=C(c1ccc(Cl)cc1)c1ccc(OCCCN(C)C)cc1)c1ccc(Cl)cc1  inhibition (cell growth or viability; 10 µM): 60.7%
Cc1cc([C@H](C(=O)N2C[C@H](O)C[C@H]2C(=O)N[C@@H](CC(=O)N2CCC(N3CCC(C#Cc4ccc(C(=O)N[C@H]5C(C)(C)[C@H](Oc6ccc(C#N)c(Cl)c6)C5(C)C)cc4)CC3)CC2)c2ccc(-c3scnc3C)cc2)C(C)C)on1  G2/M arrest concentration (flow cytometry; 72 h): 1 µM
CC(C)(C)c1cc2c(O)c(c1)Cc1cc(C(C)(C)C)cc(c1OCC(=O)Nc1cncc3ccccc13)Cc1cc(C(C)(C)C)cc(c1O)Cc1cc(C(C)(C)C)cc(c1OCC(=O)Nc1cncc3ccccc13)COC2  cleaved caspase-3 level (western blot; 0, 10, 20 µM): increased
CCN(CC)CCOc1ccc(C(=C(C)Cc2ccc(Cl)cc2)c2ccc(Cl)cc2)cc1  inhibition (cell growth or viability; 10 µM): 30.9%
NS(=O)(=O)c1ccc(/N=N/c2ccc(O)c(/C=N/c3ccccn3)c2)cc1  selectivity index (MTT; 48 h; reference: MCF10A IC50 over MCF7 IC50): 6.02
COc1ccc(-c2nnc(-c3cc(-c4ccccc4)n(-c4ccc(S(N)(=O)=O)cc4)n3)o2)cc1  mRNA level (real-time PCR, item: bcl-2; concentration not given; reference: untreated cells): 0.28 fold
CCC[C@@H]1O[C@@H](Oc2c(-c3ccc(O)cc3)oc3cc(O)cc(O)c3c2=O)[C@H](O)[C@H](OC(C)=O)[C@H]1NC(C)=O  RSK substrate phosphorylation (inhibitor, immunoblot, item: phospho-eEF2, phospho-S6, cyclin D1; 100 µM, together with: PMA): no effect
COc1ccc(-c2noc(NC(=O)c3ccc(F)c(C(F)(F)F)c3)c2C#N)c(OC)c1  Hsp90 protein level (ELISA; 10 µM): 1.56 ng/mL
O=C(NCCCNc1n[n+]([O-])c2ccccc2[n+]1[O-])C(F)(F)F  hypoxia cytotoxicity ratio (MTT; reference: IC50 normoxia over IC50 hypoxia): 5.7
CC1=[N+]2N=C(c3ccccc3)[O][Pd-2]2([Cl])[O+]=C2Oc3ccccc3C=C21 (centres unmarked)  selectivity index (cytotoxicity, MTT; 24 h; reference: WI-38 over MCF7 IC50): 2.94
CC(=C(c1ccc(Cl)cc1)c1ccc(OCCN2CCOCC2)cc1)c1ccc(Cl)cc1  inhibition (cell growth or viability; 10 µM): 19.3%
CN1CCC2(CC1)C/C(=N\NC(=O)Nc1ccccc1)c1ccccc1O2  cell cycle distribution (PI staining, flow cytometry; concentration not given, %G2/M): 10.4%
NS(=O)(=O)c1ccc(/N=N/c2ccc(O)c(/C=N/c3cccc(O)c3)c2)cc1  selectivity index (MTT; 48 h; reference: MCF10A IC50 over MCF7 IC50): 0.82
O=C1c2ccccc2C(=O)c2c1ccc1c2C(C(=O)NCc2ccccc2)C(=O)C1c1ccccc1 (centres unmarked)  TGI (cell growth or viability): 18 µM
CCCCCCCCCCCCCCCC(=O)N[C@@H](C(=O)N[C@H](CO)C(=O)N[C@H](C)C(=O)N[C@H](Cc1ccc(O)cc1)C(=O)N[C@H](CC(C)C)C(=O)N[C@@H](C(=O)NCC(=O)N[C@H](CC(N)=O)C(=O)NCC(=O)N[C@H](CC(C)C)C(=O)N[C@H](CCCNC(=N)N)C(=O)N[C@H](CO)C(=O)N[C@H](CC(N)=O)C(=O)N[C@H](CC(N)=O)C(=O)N[C@H](CCCNC(=N)N)C(N)=O)C(C)C)C(C)C  TGI (48 h, 1% FBS): 0.1 ± 0.005 µM
C[n+]1c(/C=C/c2ccc(N(c3ccccc3)c3ccccc3)cc2)cc(/C=C2\Sc3ccccc3N2CCCN2CCCC2)c2ccccc21  γ-H2AX and 53BP1 levels (Western blot; concentration not given, 36 h): increased
CC(=O)N[C@H](CCCNC(=N)N)C(=O)N[C@H](CCCCN)C(=O)N[C@H](Cc1ccc(O)cc1)C(=O)N[C@H](CS)C(N)=O  late apoptotic cells (Annexin V/PI flow cytometry; 50 nM, 24 h): 12.5%
FC(F)(F)c1cnc2[nH]cc(Cc3ccc(Cl)c(C(F)(F)F)c3)c2c1  inhibition (cell growth or viability; 10 µM, 72 h): 46%
N=C(N)NCCC[C@H](NC(=O)[C@H](Cc1c[nH]c2ccccc12)NC(=O)[C@H](CCC(N)=O)NC(=O)[C@H](Cc1c[nH]c2ccccc12)NC(=O)[C@H](CCCNC(=N)N)NC(=O)[C@H](Cc1c[nH]c2ccccc12)NC(=O)[C@H](CCC(N)=O)NC(=O)[C@H](Cc1c[nH]c2ccccc12)NC(=O)[C@@H](N)CCCNC(=N)N)C(N)=O  wound area reduction (wound-healing; concentration not given, 48 h): 3%
CC(=O)OC[C@H]1O[C@@H](Sc2sc(C(=O)c3ccc(Br)cc3)c(N)c2-c2nc3ccccc3s2)[C@H](OC(C)=O)[C@@H](OC(C)=O)[C@@H]1OC(C)=O  growth (SRB; 10 µM, 48 h; reference: untreated): 73.7%

Some of these lines once more:
CCCCCCCCCCCCCCCC(=O)N[C@@H](C(=O)N[C@H](CO)C(=O)N[C@H](C)C(=O)N[C@H](Cc1ccc(O)cc1)C(=O)N[C@H](CC(C)C)C(=O)N[C@@H](C(=O)NCC(=O)N[C@H](CC(N)=O)C(=O)NCC(=O)N[C@H](CC(C)C)C(=O)N[C@H](CCCNC(=N)N)C(=O)N[C@H](CO)C(=O)N[C@H](CC(N)=O)C(=O)N[C@H](CC(N)=O)C(=O)N[C@H](CCCNC(=N)N)C(N)=O)C(C)C)C(C)C  TGI (48 h, 1% FBS): 0.1 ± 0.005 µM
C[n+]1c(/C=C/c2ccc(N(c3ccccc3)c3ccccc3)cc2)cc(/C=C2\Sc3ccccc3N2CCCN2CCCC2)c2ccccc21  γ-H2AX and 53BP1 levels (Western blot; concentration not given, 36 h): increased
